Published values from different studies.
Each numbered part is a random draw from the data of one study; scales do not carry over between parts. Substitutions count along the parent as printed.

Block 1
Target: CEP164, C-terminal peptide (human)
Technique: DHFR complementation, deep sequencing
Matrix: yeast
Setting: single substitutions, model-inferred values
Baseline: wild type
Direction: higher = weaker binding
Endpoint: binding free energy change
Starting sequence: PDZK1, PDZ domain 2 (human); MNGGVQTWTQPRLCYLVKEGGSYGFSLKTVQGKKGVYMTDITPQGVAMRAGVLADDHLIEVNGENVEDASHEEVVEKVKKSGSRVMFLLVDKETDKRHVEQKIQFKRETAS; partner HNRVKVYRF
Q44A: 0.037 kcal/mol
A47Y: 0.697 kcal/mol
G20P: 1.08 kcal/mol
E64G: 0.317 kcal/mol
G3A: -0.0425 kcal/mol
V61G: 1.51 kcal/mol
E93C: -0.00159 kcal/mol
Y23W: 0.781 kcal/mol

Block 2
Target: Ras GTPase-activating protein-binding protein 1, full length (G3BP1, Homo sapiens, UniProt Q13283)
Chain of UniProt Q13283 (whole entry, looked up): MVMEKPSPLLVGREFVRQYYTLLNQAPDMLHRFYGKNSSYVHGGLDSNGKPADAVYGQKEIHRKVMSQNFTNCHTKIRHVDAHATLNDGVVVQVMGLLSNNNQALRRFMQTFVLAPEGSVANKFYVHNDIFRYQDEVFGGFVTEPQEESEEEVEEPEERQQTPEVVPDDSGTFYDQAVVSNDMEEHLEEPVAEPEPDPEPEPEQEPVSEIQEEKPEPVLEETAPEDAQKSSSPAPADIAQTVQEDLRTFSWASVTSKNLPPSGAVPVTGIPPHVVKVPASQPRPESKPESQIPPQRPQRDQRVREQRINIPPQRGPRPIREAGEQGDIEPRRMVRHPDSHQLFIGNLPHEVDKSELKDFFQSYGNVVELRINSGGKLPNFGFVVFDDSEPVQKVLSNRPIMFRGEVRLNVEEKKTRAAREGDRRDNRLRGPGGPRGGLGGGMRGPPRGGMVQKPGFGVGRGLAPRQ
Technique: RNA Bind-n-Seq
Molecule type: RNA
Matrix: in vitro
Tested at: 200 nM
Setting: whole 134-nt RNA, ends assumed
Added: 150 mM LiCl
Baseline: input library
Direction: higher = stronger binding
Endpoint: log2 enrichment
Library: 7-deaza-guanosine replaces G
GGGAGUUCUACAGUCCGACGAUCUGGGGGGUGGAUUUUGUUUAUUUUUUUAGCUCAUUUCCAGGGGUGGGAAUUUUUUUUUAAUAUGUGUCAUGAAUAAAGUUGUUUUUGAAAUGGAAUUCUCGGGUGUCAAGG: 0.825
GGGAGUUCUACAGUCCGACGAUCAGUCCUGUGCUACACAUCGUAUGUACCGAAUCGGGGAAAAGGAAAAGGGAAAAGGGGAAAGUAUUAUGUUACGCCGUUCGGAUCUGCACUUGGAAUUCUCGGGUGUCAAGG: -0.382
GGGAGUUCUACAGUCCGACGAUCAAGUCCUGUGCUACACAUCGUAUGUACCGAAUCGGUUUGGUUUUUGGAAAAAAAGGAAAGUAUUAUGUUACGCCGUUCGGAUCUGCACUUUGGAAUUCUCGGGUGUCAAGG: -1.03
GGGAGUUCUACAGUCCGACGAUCGAGGAGACUCUGCGCAGAGCACUUUGGGUCCGGAGGGCGAGACUCCGGCGGAAGCAUUCCCGGGCGGGUGACCCAGCACGGUCCCUCUUGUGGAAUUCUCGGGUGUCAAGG: -0.908
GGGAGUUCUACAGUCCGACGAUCUCCUGUGCUACACAUCGUAUGUACCGAAUCGGGGAAAGGGGAAAAAAAGGGGUUUGGGGAAAGUAUUAUGUUACGCCGUUCGGAUCUGCAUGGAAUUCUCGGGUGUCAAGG: 0.109
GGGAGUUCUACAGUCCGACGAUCUUAAUAGAUUGAACUUCAAAAAAAAAUUCUUUCUUAAUUUCUGGAUUAAAAAGUAUGCCUGUGUCUUCUAGACCUUUACCAGAAGAUGAUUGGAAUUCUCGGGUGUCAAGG: -1.46
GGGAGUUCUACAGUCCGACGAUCGCCCUGUAAUCGUGGAGAUCCCGCACUUUGCCUCCCAUGGCCGUGGAGACCGCGAGCUCGUGGUUCUGAGGAGCGAAAACGGCUCCGUGUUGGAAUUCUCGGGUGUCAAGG: -1.26
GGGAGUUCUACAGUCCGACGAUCUUCUUGCCAGAGACGAAGAAGCGCAAGAAACGCAAGUCAGAGGAUGGCACGCCAGCGGAGGAUGGCACACCUGCAGCCACCGGCGGGAGCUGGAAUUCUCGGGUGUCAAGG: -1.18

Block 3
Target: CCNA1, cyclin fold, Cln2 fusion (human)
Technique: yeast growth competition, sequencing
Matrix: yeast
Setting: weak parent motif
Baseline: not given
Direction: higher = stronger binding
Endpoint: normalised enrichment score
Starting sequence: viral docking peptide; KGVKRKLFAEDSS; partner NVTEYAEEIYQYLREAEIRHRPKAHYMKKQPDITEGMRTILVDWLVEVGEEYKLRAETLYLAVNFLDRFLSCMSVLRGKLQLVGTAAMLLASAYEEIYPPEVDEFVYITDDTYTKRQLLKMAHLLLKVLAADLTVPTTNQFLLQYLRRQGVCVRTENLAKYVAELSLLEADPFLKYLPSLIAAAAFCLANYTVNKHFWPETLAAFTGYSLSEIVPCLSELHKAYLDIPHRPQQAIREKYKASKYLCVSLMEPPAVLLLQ
K1A: 0.679
L7S: 0.282
K6Y: 0.0608
K4D: -0.139
V3M: 0.0643
G2S: 1.2
R5P: 0.195
V3C: 0.992
E10S: 0.417
R5D: 0.208
R5K F8L: 0.219
S12V: 1.68
V3H: 0.189
G2T: 1.16
R5N: 0.24
D11A: 1

Block 4
Target: HLA class I histocompatibility antigen, C alpha chain, allele C*04:01 (Homo sapiens, UniProt P10321)
Observed: peptide-MHC binding
Molecule type: peptide
Tested at: concentration not given
Endpoint: binding
SPAAYVLPL: inactive
FPYTGDPPY: inactive
RRRRRRAAL: inactive

Repeated from above (block 2):
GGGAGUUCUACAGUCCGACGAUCGAGGAGACUCUGCGCAGAGCACUUUGGGUCCGGAGGGCGAGACUCCGGCGGAAGCAUUCCCGGGCGGGUGACCCAGCACGGUCCCUCUUGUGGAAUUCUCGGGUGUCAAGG: -0.908
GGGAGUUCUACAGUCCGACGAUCUGGGGGGUGGAUUUUGUUUAUUUUUUUAGCUCAUUUCCAGGGGUGGGAAUUUUUUUUUAAUAUGUGUCAUGAAUAAAGUUGUUUUUGAAAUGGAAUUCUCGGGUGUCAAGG: 0.825
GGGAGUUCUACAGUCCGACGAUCAGUCCUGUGCUACACAUCGUAUGUACCGAAUCGGGGAAAAGGAAAAGGGAAAAGGGGAAAGUAUUAUGUUACGCCGUUCGGAUCUGCACUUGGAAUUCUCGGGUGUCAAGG: -0.382
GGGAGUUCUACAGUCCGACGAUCUCCUGUGCUACACAUCGUAUGUACCGAAUCGGGGAAAGGGGAAAAAAAGGGGUUUGGGGAAAGUAUUAUGUUACGCCGUUCGGAUCUGCAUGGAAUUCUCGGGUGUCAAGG: 0.109
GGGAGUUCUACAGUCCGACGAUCUUCUUGCCAGAGACGAAGAAGCGCAAGAAACGCAAGUCAGAGGAUGGCACGCCAGCGGAGGAUGGCACACCUGCAGCCACCGGCGGGAGCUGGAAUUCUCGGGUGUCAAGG: -1.18
